Results gathered from unrelated publications.
Protocols differ between the studies behind these lines. Several values in a cell are separate wells, animals, samples, runs or records. Numbers after ± are the reported error.

Compound | tested on | test | test system | conditions | scale | quantity | result
CN[C@@H]1COc2c(S(=O)(=O)NC(=O)Nc3c4c(cc5c3CCC5)CCC4)cnn2C1 | – | item: IL-1β | human participants, whole blood ex vivo | 1800 mg single dose, 48 h, added: LPS/ATP | relative to: baseline | inhibition | 72.1%
C=CCn1c(=O)c2cnc(Nc3ccc(N4CCN(C)CC4)cc3)nc2n1-c1ccc2c(n1)[C@@](O)(CC)CC2 | – | – | LNCaP xenograft, BALB/c nude mice | oral, 80 mg/kg once daily x 21, day 22 | – | tumour volume difference | 458 ± 13.3 mm3
CSc1ccc(C(=O)/C=C/c2cc(C)c(OC(C)(C)C(=O)O)c(C)c2)cc1 | – | RT-PCR, item: ANGPTL3, Apo C-III | db/db mice, MCD diet-fed, liver | 30 mg/kg | relative to: model group | mRNA level | no effect
COc1ccc(C(=O)Nc2ccc(-n3cc(CNc4nc(OC)nc(OC)n4)nn3)cc2)cc1 | – | MTT | normal colonocytes, rat | 72 h | – | maximum non-toxic concentration | 1.49 ± 0.19 nM
COc1cc(Nc2ncc3c(n2)-c2ccc(Cl)cc2C(c2c(F)cccc2OC)=NC3)ccc1C(=O)O | – | – | mouse, KT-10 Wilms tumour xenograft | oral, 20.8 mg/kg, day 7 | relative to: vehicle | relative tumour volume T/C | 1
C[C@H]1O[C@@H](O[C@H]2CC[C@@]3(C)[C@@H](CC[C@]4(C)[C@@H]3C=C[C@]35OC[C@@]6(CCC(C)(C)C[C@H]63)[C@@H](O)C[C@]54C)[C@]2(C)CO)[C@H](O)[C@@H](O[C@@H]2O[C@H](CO)[C@@H](O)[C@H](O)[C@H]2O)[C@H]1O | – | Western blot | mice, normal diet, liver | dose not given, high dose | relative to: control mice | SIRT1 to β-actin ratio | 0.86 fold change and 0.967 fold change and 1.1 fold change
C=C1CC[C@H](OCCCNC(=O)CCOCCOCCOCCOCCOCCOCCOCCOCCOCCOCCOCCOCCOCCOCCOCCOCCOCCOCCOCCOCCOCCOCCOCCOCCOCCOCCOCCOCCOCCOCCOCCOCCOCCOCCOCCOCCNC(=O)CCN2C(=O)CC(SC[C@H](NC(=O)[C@H](CCCNC(=N)N)NC(=O)[C@@H]3CCCN3C(=O)[C@H](CCC(N)=O)NC(=O)[C@H](CC(C)C)NC(=O)[C@H](CCCCN)NC(=O)[C@H](C)NC(=O)[C@@H]3CCCN3C(=O)[C@@H]3CCCN3C(=O)[C@H](CCCCN)NC(=O)[C@H](CCCCN)NC(=O)[C@H](CO)NC(=O)[C@H](CCC(=O)O)NC(=O)[C@H](CCCCN)NC(=O)[C@H](CCCNC(=N)N)NC(=O)[C@H](CCC(N)=O)NC(=O)[C@H](CCC(N)=O)NC(=O)[C@@H](NC(=O)[C@H](CCCNC(=N)N)NC(=O)[C@H](CCC(N)=O)NC(=O)[C@H](Cc3c[nH]cn3)NC(=O)[C@H](CCC(=O)O)NC(=O)[C@@H]3CCCN3C(=O)[C@H](CO)NC(=O)[C@H](CC(C)C)NC(=O)[C@H](Cc3ccccc3)NC(=O)[C@H](CNC(=O)CCCCCCC)NC(=O)[C@H](CO)NC(=O)CN)C(C)C)C(=O)O)C2=O)C/C1=C/C=C1\CCC[C@]2(C)[C@@H]([C@H](C)CCCC(C)(C)O)CC[C@@H]12 (stereo partly shown) | – | real-time RT-PCR, item: Il6 | mice, LLC tumour-bearing, tibialis anterior | daily or every other day | relative to: tumour-bearing vehicle | mRNA level | decreased
OC(CCN1CCCCC1)(c1ccccc1)C1CC2C=CC1C2 (stereo not shown) | – | resting-state EEG | healthy elderly humans | oral, 4 mg, eyes closed, LS mean | – | power, alpha, EEG O1-Pz | 17 µV²
Cc1noc(C)c1-c1cc(C(O)(c2ccccn2)c2ccccn2)c2nc(C3CC3)[nH]c2c1 | – | item: CCR2 expression | human patients | dose not given, day 1, 24 h | – | maximum inhibition | 28.5%
CC(C)NCC(O)c1ccc(O)c(O)c1 (stereo not shown) | – | – | ventricular cardiomyocytes, C57BL/6 mouse | dose not given, 0.768 s | – | sarcomere length | 1.72 µm
CC(C)[C@H](C(=O)Nc1ccc(C(=O)NO)cc1)c1ccccc1 | – | volumetric MRI | human, left cistern meningioma | dose not given, day 23 | – | tumour volume | 8.4 cm3
COc1cc2cc(-c3ccc(CC(=O)Nc4cc(C(C)(C)C(F)(F)F)no4)cn3)cnc2cc1OC | – | RECIST v1.1 | human RET-altered solid tumours | 13 100 mg tablets, phase I | – | disease control rate | 88%
Cc1coc([C@H]2C[C@H]3[C@@H](CF)SC(N)=N[C@@]3(c3ccc(F)cc3F)CO2)n1 | – | item: Aβx-42 | Mus musculus wild-type, brain | subcutaneous, 80 mg/kg, 7 h | – | Aβ42 level | 0.57 ng/g
N=C(N)NCCC[C@H](NC(=O)[C@H](CCCNC(=N)N)NC(=O)[C@H](CCCCN)NC(=O)[C@H](CCC(N)=O)NC(=O)[C@H](CCCCN)NC(=O)[C@H](Cc1ccc(O)cc1)NC(=O)[C@@H](N)CCCCN)C(=O)N[C@@H](CO)C(=O)N[C@@H](Cc1ccc(O)cc1)C(=O)N[C@@H](CCCCN)C(=O)O | – | – | human, dentin hypersensitivity patients | topical to tooth, 10 µg/tooth repeated, day 36, phase 1/2a trial, added: cold water stimulus | direction not given | median change in VAS score | -21.5 mm
CC[C@@H](C)[C@@H](NC(=O)[C@@H](Cc1ccc(O)cc1)NC(=O)[C@H]1CCCN1C(=O)[C@@H](CCCNC(=N)N)NC(=O)[C@H](N)Cc1c[nH]cn1)C(=O)N[C@H](C)C(=O)N[C@H](Cc1c[nH]cn1)C(=O)N[C@H](CCCNC(=N)N)C(=O)N[C@@H](C(=O)N[C@H](Cc1ccc(O)cc1)C(=O)N[C@H](CO)C(=O)N[C@H](Cc1ccccc1)C(N)=O)C(C)C | – | ex vivo flow cytometry | MC-38 tumour-bearing mice, spleen | dose not given | relative to: CD8+ T cells | IFN-γ+ CD8+ T cells | 3.7% and 4.98% and 5.96% and 5.99%
C[C@@H](NC(=O)N1C(=O)[C@H](Cc2ccnc(N)c2)[C@H]1C(=O)O)C1CCCCC1 | – | – | human | iv infusion, 1.0 mg/kg/h, 24 h, unit not given | relative to: baseline | PT Emax | 1.04
Cc1cc(C)c(CNC(=O)c2cc(Cl)c3c(c2C)O[C@@](C)([C@H]2CC[C@H](N(C)C)CC2)O3)c(=O)[nH]1 | – | – | human relapsed/refractory PTCL | CR + PR + SD | – | disease control | 53.8%
CCCCC1(CCCC)CN(c2ccccc2)c2cc(SC)c(OCC(=O)N[C@@H](C(=O)NCC(=O)O)c3ccccc3)cc2S(=O)(=O)C1 | – | item: 7α-hydroxy-4-cholesten-3-one | human, plasma | 5 mg once daily, day 13 | – | plasma C4 | 61.5 ng/mL
Nc1nc(OCc2ccccc2)c2nc[nH]c2n1 | THP-1 | pyroptotic LDH release | – | 2 µM, 40 min, added: LPS then nigericin | – | inhibition | -36.2%
Cc1n[nH]c2ccc(-c3cc(OC[C@@H](N)Cc4ccccc4)cnc3-c3ccoc3)cc12 | – | kinase binding, competitor, MIB/MS competition, item: MKK2 | Candida albicans cell lysate | 10 µM | relative to: DMSO | log2 fold change | -1.11

Compound | tested on | test | test system | conditions | scale | quantity | result
Cc1cc([C@H]2C[C@H]3[C@@H](CF)SC(N)=N[C@@]3(c3ccc(F)cc3F)CO2)on1 | – | item: Aβx-40 | wild-type mouse, brain | subcutaneous, 30 mg/kg, 3 h | – | brain Aβ40 level | 1.84 ng/g
CSCCNc1nc(SCCC(F)(F)F)nc2c1ncn2[C@@H]1O[C@H](COP(=O)(O)OP(=O)(O)C(Cl)(Cl)P(=O)(O)O)[C@@H](O)[C@H]1O | – | light transmittance aggregometry | human patients, platelet-rich plasma | dose not given, 2 h, added: ADP 5 µM | relative to: patients | patients with IPA above 90% | 5%
COc1nc(-c2cc(C)c(N[C@@H](C)c3cc(F)cc(F)c3)nn2)ccc1-n1cnc(C)c1 | – | item: Aβ42 | rat Sprague-Dawley male, CSF | oral, 5 mg/kg daily for 9 days, 4 h after dose | relative to: vehicle | change in level | 41%
Cc1cc(F)cc2c(CCC(=O)N[C@@H]3C(=O)NC[C@H]3O)c(-c3ccc(F)cc3)[nH]c12 | – | – | APOL1 G2 mice, IFNγ-induced | 30 mg/kg twice daily, day 12 | – | urine albumin/creatinine ratio | 157 µg/mg and 124 µg/mg and 77 µg/mg and 1110 µg/mg and 593 µg/mg
C#C[C@]1(O)CC[C@H]2[C@@H]3CCC4=CC(=O)CC[C@@H]4[C@H]3C(=C)C[C@@]21CC | THP-1 | pyroptotic LDH release | – | 2 µM, 40 min, added: LPS then nigericin | – | inhibition | -8.51%
O=C(/C=C/c1ccc(O)c(O)c1/C=C/c1ccc(O)c(O)c1)O[C@H](Cc1ccc(O)c(O)c1)C(=O)O | – | – | isolated myocardial tissue | 10 µM | – | CPP | 43.3 mmHg
N#Cc1ccc2c(-c3ccncc3)c(-c3ccc(F)cc3)nn2c1 | – | kinase binding, competitor, MIB/MS competition, item: YCK2 | Candida albicans cell lysate | 100 nM | relative to: DMSO | log2 fold change | -1.95
O=C(OC(C(F)(F)F)C(F)(F)F)N1CCN(Cc2cccc(Oc3ccccc3)c2)CC1 | – | PET blocking study | rhesus monkey, brain Pons | 0.3 mg/kg, compound pretreatment, added: [18F]T-401 tracer | – | k4 | 0.294 min⁻¹
c1ccc(-c2n[nH]cc2-c2ccnc3ccccc23)nc1 | – | kinase binding, competitor, MIB/MS competition, item: CMK1 | Candida albicans cell lysate | 1 µM | relative to: DMSO | log2 fold change | 1.32
Cn1cc(Nc2nccc(-c3ccc4c(c3)CN(C3COC3)CC[C@H]4NC(=O)c3cn(C(C)(C)C)nn3)n2)cn1 | – | item: Oxidative Stress Response, NRF2-mediated | splenic B cells, mouse | in vivo, 30 mg/kg, IgD-activated B cells | relative to: vehicle, positive = activation | pathway activation z-score | 0.471
CCN1CCN(Cc2ccc(Nc3ncc(F)c(-c4cc(F)c5nc6n(c5c4)[C@H](C)CCC6)n3)nc2)CC1 | – | – | human advanced solid tumours | 400 mg, phase Ia monotherapy RECIST 1.1 | – | non-CR/non-PD | 0%
O=C(O)CNC(=O)Cc1ccccc1 | – | – | ventricular cardiomyocytes, C57BL/6 mouse | dose not given, 0.28 s | – | sarcomere length | 1.68 µm
COc1ccc(-c2cncc(N[C@@H](C)c3cccc(NC(=O)c4cncc(C)c4)c3)n2)cc1OC | – | item: rno-miR-185-5p | rat SU5416/hypoxia model, lung | dose not given | relative to: SU5416/hypoxia vehicle | fold change | 1.09
C[C@H]1C[C@H]2CSC(N)=N[C@@]2(c2nc(NC(=O)c3ccc(OC(F)F)cn3)cs2)CO1 | – | item: total Aβ | healthy adults, plasma | 50 mg once daily, day 10 | relative to: placebo | percent change from baseline | -65.3%
C=CC(=O)Nc1cc(Nc2nccc(Nc3cc(Cl)c(F)cc3C(C)(C)O)n2)c(OC)cc1N1CC[C@@H](N(C)C)C1 | – | – | human, EGFR exon20ins NSCLC | concentration not given, D770_N771insSVD subtype | – | disease control rate | 90%
CCOCc1nc(O)c(-c2nnc(Cc3ccc(Cl)cn3)o2)c(O)c1-c1c(OC)cccc1OC | – | – | instrumented anaesthetised rat | intravenous infusion, 1 µg/kg/min for 15 min, 15 min | relative to: baseline | dP/dtmax change | 8.8 ± 0.8%
CC1(C)CCC2(CC1)N[C@@H](C(=O)N[C@@H]1CC[C@@H](C(N)=O)OC1)[C@H](c1ccnc(Cl)c1F)[C@]21C(=O)Nc2cc(Cl)ccc21 | – | – | human, solid tumours | 60 mg/day, RECIST | relative to: patients | non-evaluable patients | 33.3%
COc1ncc(-c2nc3c(n2C(C)C)[C@H](c2ccc(Cl)cc2)N(c2cc(Cl)cn(C)c2=O)C3=O)c(OC)n1 | – | International Working Group criteria | human acute myeloid leukemia patients | oral, 250 mg, response CR, high-dose, recommended dose for expansion | – | best overall response | 6.7%
C[C@H](Oc1ccc(Br)cc1-c1ccon1)C(=O)O | – | handgrip dynamometry | healthy human males | 200 mg once daily, multiple doses | relative to: placebo | peak grip force | 4.86 kg
CC(C)Cn1cnc2c(N)nc3ccccc3c21 | – | – | mouse psoriasiform model, skin | dose not given | relative to: control | CXCL1 level | 4 fold

Some of these lines once more:
Compound | tested on | test | test system | conditions | scale | quantity | result
OC(CCN1CCCCC1)(c1ccccc1)C1CC2C=CC1C2 (stereo not shown) | – | resting-state EEG | healthy elderly humans | oral, 4 mg, eyes closed, LS mean | – | power, alpha, EEG O1-Pz | 17 µV²
Cc1noc(C)c1-c1cc(C(O)(c2ccccn2)c2ccccn2)c2nc(C3CC3)[nH]c2c1 | – | item: CCR2 expression | human patients | dose not given, day 1, 24 h | – | maximum inhibition | 28.5%
CC(C)NCC(O)c1ccc(O)c(O)c1 (stereo not shown) | – | – | ventricular cardiomyocytes, C57BL/6 mouse | dose not given, 0.768 s | – | sarcomere length | 1.72 µm
CC(C)[C@H](C(=O)Nc1ccc(C(=O)NO)cc1)c1ccccc1 | – | volumetric MRI | human, left cistern meningioma | dose not given, day 23 | – | tumour volume | 8.4 cm3
COc1cc2cc(-c3ccc(CC(=O)Nc4cc(C(C)(C)C(F)(F)F)no4)cn3)cnc2cc1OC | – | RECIST v1.1 | human RET-altered solid tumours | 13 100 mg tablets, phase I | – | disease control rate | 88%
Cc1coc([C@H]2C[C@H]3[C@@H](CF)SC(N)=N[C@@]3(c3ccc(F)cc3F)CO2)n1 | – | item: Aβx-42 | Mus musculus wild-type, brain | subcutaneous, 80 mg/kg, 7 h | – | Aβ42 level | 0.57 ng/g
N=C(N)NCCC[C@H](NC(=O)[C@H](CCCNC(=N)N)NC(=O)[C@H](CCCCN)NC(=O)[C@H](CCC(N)=O)NC(=O)[C@H](CCCCN)NC(=O)[C@H](Cc1ccc(O)cc1)NC(=O)[C@@H](N)CCCCN)C(=O)N[C@@H](CO)C(=O)N[C@@H](Cc1ccc(O)cc1)C(=O)N[C@@H](CCCCN)C(=O)O | – | – | human, dentin hypersensitivity patients | topical to tooth, 10 µg/tooth repeated, day 36, phase 1/2a trial, added: cold water stimulus | direction not given | median change in VAS score | -21.5 mm
